Earlier results as cited in several papers.
Lines come from different studies, so protocols differ. ± marks the error that the study gave.

CC1=C(CO)C(=O)O[C@@H]([C@@H](C)[C@H]2CC[C@H]3[C@@H]4C[C@H]5O[C@]56[C@@H](O)C=CC(=O)[C@]6(C)[C@H]4[C@@H](O)C[C@]23C)C1  IC50 (Hs-578T; cell growth): 2.47 µM
CCC1=C(O)c2c(oc(-c3ccc4cc(OC)ccc4c3)cc2=O)C(CC)(CC)C1=O  IC50 (PC-3; cell growth, SRB): 4.78 µM
CC1=C2[O][Ru-]([Cl])[O+]=C2C=CN1CCCN1C=CC2=[O+][Ru-]([Cl])[O]C2=C1C.Cc1ccc(C(C)C)cc1.Cc1ccc(C(C)C)cc1  IC50 (A2780; MTT): 25 ± 2 µM
CNC(=O)OCc1c(COC(=O)NC)c(-c2ccc(OC)cc2)n2c1Cc1ccccc1-2  IC50 (H460): 63.8 µM
O=c1c2ccc(-n3cc(-c4ccccc4)nn3)cc2ncn1Cc1ccc(Br)cc1  IC50 (HT-29): 7.23 µM
Cc1ccc(C2C3=C(COC3=O)NC3=C2C(=O)c2ccccc2C3=O)cc1 (centres unmarked)  IC50 (MCF7 cells; cell growth): > 2.5 µM
COc1cc([C@H]2Oc3cc4c(cc3C(=O)[C@]2(Cl)[N+](=O)[O-])OCO4)cc(OC)c1OC  IC50 (L1210; cell growth): 6 µM
Cc1cccc(NC(=O)Nc2nnc(SCc3nc4ccccc4c(=O)[nH]3)s2)c1  IC50 (PC-3; cell growth): 17.7 µM
Oc1cccc(-c2cccc(O)n2)n1.[Cl-].[Cl-].[Ru+2].c1cnc2c(c1)ccc1cccnc12.c1cnc2c(c1)ccc1cccnc12  IC50 (HeLa; cell viability; together with: blue light 450 nm, 1 h): 383 µM
CC(=O)OC1CC2C3C(OC(C)=O)C4OC45C(O)C=CC(=O)C5(C)C3CCC2(C)C1C(C)(O)C1CC(C)=C(C)C(=O)O1 (centres unmarked)  IC50 (KB; cell growth): 0.76 µM
Cc1cc2[nH]c(C(=O)Nc3ccccc3C)c(CN3CCOCC3)c2s1  IC50 (neonatal foreskin fibroblasts; viability): > 20 µM
O=C(NO)c1ccc(NC(=O)[C@@H](NC(=O)c2ccc3ccccc3c2)c2ccccc2)cc1  IC50 (U-937; cell viability, MTT): 1.32 µM
Oc1cccc(-c2cccc(O)n2)n1.[Cl-].[Cl-].[Ru+2].c1cnc2c(c1)c1c(c3cccnc32)OCCO1.c1cnc2c(c1)c1c(c3cccnc32)OCCO1  IC50 (MDA-MB-231; cell viability; dark): 190 µM
COc1ccc(/C=C(\C)C(=O)c2cc(OC)c(OC)c(OC)c2)cc1O  IC50 (K562): 0.00021 µM
CCNc1cc2c(cc1C)C1(c3cc(C)c(NCC)cc3O2)c2ccccc2C(=O)N1N=Cc1ccnc(-c2cc(C)ccn2)c1.Cc1c(C)c(-c2ccc(-c3ccccc3)cc2)[c-](C)c1C.F[P-](F)(F)(F)(F)F.[Cl-].[Ir+3]  IC50 (HepG2 cancer cells): 5.5 ± 0.7 µM
CC(=O)OC1C2C3CCC(C(C)(O)C4CC(C)=C(C)C(=O)O4)C3(C)CCC2C2(C)C(=O)C=CC(O)C23OC13 (centres unmarked)  IC50 (Col2; cell growth): 0.14 µM
O=C1NCC(Cc2ccccc2)N(CC2CCCN2CC(CC2CCCCC2)N2CC(Cc3ccc(O)cc3)N(CCc3ccccc3)C(=O)C2=O)C1=O (centres unmarked)  IC50 (SK-MEL-28; viability): 0.6 ± 0.4 µM
CCN(CC)CC(=O)Nc1cccc(-n2cc(-c3ccc4ccc(-c5cn(-c6cccc(NC(=O)CN(CC)CC)c6)nn5)cc4c3)nn2)c1  IC50 (RCC4): 1.4 µM
O=C1OCC2=C1C(c1cccc(Br)c1)C1=C(N2)C(=O)c2ccccc2C1=O (centres unmarked)  IC50 (KB cells; cell growth): 1.71 ± 0.07 µM
COc1cc(OC)cc(C2=C3C(C)=C(I)C(C)=[N+]3[B-](F)(F)n3c(C)c(I)c(C)c32)c1  IC50 (HEp-2; cytotoxicity; dark): > 400 µM

A few entries again:
CC1=C2[O][Ru-]([Cl])[O+]=C2C=CN1CCCN1C=CC2=[O+][Ru-]([Cl])[O]C2=C1C.Cc1ccc(C(C)C)cc1.Cc1ccc(C(C)C)cc1  IC50 (A2780; MTT): 25 ± 2 µM
CNC(=O)OCc1c(COC(=O)NC)c(-c2ccc(OC)cc2)n2c1Cc1ccccc1-2  IC50 (H460): 63.8 µM
Oc1cccc(-c2cccc(O)n2)n1.[Cl-].[Cl-].[Ru+2].c1cnc2c(c1)ccc1cccnc12.c1cnc2c(c1)ccc1cccnc12  IC50 (HeLa; cell viability; together with: blue light 450 nm, 1 h): 383 µM
